Assay results pooled from the literature.
Values joined by “and” are separate records of one study, mostly repeats; a detail may differ.
B1: CX3CL1 25-339 (Homo sapiens, UniProt P78423); sequence looked up; chain QHHGVTKCNITCSKMTSKIPVALLIHYQQNQASCGKRAIILETRQHRLFCADPKEQWVKDAMQHLDRQAAALTRNGGTFEKQIGEVKPRTTPAAGGMDESVVLEPEATGESSSLEPTPSSQEAQRALGTSPELPTGVTGSSGTRLPPTPKAQDGGPVGTELFRVPPVSTAATWQSSAPHQPGPSLWAEAKTSEAPSTQDPSTQASTASSPAPEENAPSEGQRVWGQGQSPRPENSLEREEMGPVPAHTDAFQDWGPGSMAHVSVVPVSSEGTPSREPVASGSWTPKAEEPIHATMDPQRLGVLITPVPDAQAATR
B2: DLL4 27-400 G28S/F107L/I143F/H194Y/L206P/N257P/T271L/F280Y/S301R/Q305P (Homo sapiens, UniProt Q9NR61); sequence looked up; chain SSVFQLQLQEFINERGVLASGRPCEPGCRTFFRVCLKHFQAVVSPGPCTFGTVSTPVLGTNSFAVRDDSSGGGRNPLQLPLNFTWPGTFSLIIEAWHAPGDDLRPEALPPDALISKFAIQGSLAVGQNWLLDEQTSTLTRLRYSYRVICSDNYYGDNCSRLCKKRNDYFGHYVCQPDGNPSCLPGWTGEYCQQPICLSGCHEQNGYCSKPAECLCRPGWQGRLCNECIPHPGCRHGTCSTPWQCLCDEGWGGLYCDQDLNYCTHHSPCKNGATCRNSGPRSYTCTCRPGYTGVDCELELSECDSNPCRNGGSCKDQEDGYHCLCPPGYYGLHCEHSTLSCADSPCFNGGSCRERNQGANYACECPPNFTGSNCE
Sequence of UniProt P47112 (whole entry, looked up): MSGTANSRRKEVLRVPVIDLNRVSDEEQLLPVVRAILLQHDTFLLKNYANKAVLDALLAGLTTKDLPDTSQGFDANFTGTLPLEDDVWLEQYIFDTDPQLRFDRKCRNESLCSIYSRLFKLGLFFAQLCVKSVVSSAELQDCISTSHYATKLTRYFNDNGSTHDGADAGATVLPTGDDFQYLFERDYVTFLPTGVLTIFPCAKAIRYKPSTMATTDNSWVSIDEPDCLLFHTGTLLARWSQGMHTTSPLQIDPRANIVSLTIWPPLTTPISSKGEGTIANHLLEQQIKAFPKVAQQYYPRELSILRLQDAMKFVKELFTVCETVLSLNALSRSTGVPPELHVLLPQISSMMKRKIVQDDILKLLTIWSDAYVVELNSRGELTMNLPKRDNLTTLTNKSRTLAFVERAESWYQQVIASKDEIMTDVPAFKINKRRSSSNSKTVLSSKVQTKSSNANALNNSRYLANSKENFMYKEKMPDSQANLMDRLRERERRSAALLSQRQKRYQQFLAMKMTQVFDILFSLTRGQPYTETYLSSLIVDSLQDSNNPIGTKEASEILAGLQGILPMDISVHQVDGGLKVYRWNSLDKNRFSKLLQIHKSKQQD
Sequence of UniProt Q8VI67 (whole entry, looked up): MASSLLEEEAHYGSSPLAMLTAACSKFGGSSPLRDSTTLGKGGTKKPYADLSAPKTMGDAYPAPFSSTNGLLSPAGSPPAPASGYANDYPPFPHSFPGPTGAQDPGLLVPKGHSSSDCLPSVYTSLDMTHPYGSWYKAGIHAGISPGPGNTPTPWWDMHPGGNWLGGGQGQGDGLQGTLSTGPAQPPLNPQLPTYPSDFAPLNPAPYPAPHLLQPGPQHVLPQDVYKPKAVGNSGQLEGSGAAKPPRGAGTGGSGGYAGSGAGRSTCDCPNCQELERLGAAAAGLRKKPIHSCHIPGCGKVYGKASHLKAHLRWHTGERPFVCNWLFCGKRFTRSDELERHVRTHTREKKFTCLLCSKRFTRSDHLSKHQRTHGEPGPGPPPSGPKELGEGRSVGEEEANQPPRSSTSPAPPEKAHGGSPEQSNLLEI
Sequence of UniProt P14780 (whole entry, looked up): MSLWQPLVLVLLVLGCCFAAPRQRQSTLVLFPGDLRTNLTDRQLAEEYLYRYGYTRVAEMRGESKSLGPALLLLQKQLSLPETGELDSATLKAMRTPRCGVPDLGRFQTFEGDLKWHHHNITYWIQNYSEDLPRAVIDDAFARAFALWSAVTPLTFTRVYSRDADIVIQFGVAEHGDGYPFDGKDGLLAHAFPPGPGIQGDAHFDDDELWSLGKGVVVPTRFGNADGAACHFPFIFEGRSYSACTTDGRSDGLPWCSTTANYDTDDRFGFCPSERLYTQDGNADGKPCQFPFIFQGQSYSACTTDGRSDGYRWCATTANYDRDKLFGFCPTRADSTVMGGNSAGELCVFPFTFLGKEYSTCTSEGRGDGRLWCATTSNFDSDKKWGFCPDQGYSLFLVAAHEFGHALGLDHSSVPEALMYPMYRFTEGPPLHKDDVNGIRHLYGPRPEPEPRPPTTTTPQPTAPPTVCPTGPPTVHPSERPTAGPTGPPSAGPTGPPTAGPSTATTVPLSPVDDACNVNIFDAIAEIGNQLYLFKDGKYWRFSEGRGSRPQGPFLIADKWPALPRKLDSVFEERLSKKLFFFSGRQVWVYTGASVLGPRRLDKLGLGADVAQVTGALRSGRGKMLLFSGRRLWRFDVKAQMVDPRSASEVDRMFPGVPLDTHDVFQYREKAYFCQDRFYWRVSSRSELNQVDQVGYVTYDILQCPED
Sequence of UniProt Q99466 (whole entry, looked up): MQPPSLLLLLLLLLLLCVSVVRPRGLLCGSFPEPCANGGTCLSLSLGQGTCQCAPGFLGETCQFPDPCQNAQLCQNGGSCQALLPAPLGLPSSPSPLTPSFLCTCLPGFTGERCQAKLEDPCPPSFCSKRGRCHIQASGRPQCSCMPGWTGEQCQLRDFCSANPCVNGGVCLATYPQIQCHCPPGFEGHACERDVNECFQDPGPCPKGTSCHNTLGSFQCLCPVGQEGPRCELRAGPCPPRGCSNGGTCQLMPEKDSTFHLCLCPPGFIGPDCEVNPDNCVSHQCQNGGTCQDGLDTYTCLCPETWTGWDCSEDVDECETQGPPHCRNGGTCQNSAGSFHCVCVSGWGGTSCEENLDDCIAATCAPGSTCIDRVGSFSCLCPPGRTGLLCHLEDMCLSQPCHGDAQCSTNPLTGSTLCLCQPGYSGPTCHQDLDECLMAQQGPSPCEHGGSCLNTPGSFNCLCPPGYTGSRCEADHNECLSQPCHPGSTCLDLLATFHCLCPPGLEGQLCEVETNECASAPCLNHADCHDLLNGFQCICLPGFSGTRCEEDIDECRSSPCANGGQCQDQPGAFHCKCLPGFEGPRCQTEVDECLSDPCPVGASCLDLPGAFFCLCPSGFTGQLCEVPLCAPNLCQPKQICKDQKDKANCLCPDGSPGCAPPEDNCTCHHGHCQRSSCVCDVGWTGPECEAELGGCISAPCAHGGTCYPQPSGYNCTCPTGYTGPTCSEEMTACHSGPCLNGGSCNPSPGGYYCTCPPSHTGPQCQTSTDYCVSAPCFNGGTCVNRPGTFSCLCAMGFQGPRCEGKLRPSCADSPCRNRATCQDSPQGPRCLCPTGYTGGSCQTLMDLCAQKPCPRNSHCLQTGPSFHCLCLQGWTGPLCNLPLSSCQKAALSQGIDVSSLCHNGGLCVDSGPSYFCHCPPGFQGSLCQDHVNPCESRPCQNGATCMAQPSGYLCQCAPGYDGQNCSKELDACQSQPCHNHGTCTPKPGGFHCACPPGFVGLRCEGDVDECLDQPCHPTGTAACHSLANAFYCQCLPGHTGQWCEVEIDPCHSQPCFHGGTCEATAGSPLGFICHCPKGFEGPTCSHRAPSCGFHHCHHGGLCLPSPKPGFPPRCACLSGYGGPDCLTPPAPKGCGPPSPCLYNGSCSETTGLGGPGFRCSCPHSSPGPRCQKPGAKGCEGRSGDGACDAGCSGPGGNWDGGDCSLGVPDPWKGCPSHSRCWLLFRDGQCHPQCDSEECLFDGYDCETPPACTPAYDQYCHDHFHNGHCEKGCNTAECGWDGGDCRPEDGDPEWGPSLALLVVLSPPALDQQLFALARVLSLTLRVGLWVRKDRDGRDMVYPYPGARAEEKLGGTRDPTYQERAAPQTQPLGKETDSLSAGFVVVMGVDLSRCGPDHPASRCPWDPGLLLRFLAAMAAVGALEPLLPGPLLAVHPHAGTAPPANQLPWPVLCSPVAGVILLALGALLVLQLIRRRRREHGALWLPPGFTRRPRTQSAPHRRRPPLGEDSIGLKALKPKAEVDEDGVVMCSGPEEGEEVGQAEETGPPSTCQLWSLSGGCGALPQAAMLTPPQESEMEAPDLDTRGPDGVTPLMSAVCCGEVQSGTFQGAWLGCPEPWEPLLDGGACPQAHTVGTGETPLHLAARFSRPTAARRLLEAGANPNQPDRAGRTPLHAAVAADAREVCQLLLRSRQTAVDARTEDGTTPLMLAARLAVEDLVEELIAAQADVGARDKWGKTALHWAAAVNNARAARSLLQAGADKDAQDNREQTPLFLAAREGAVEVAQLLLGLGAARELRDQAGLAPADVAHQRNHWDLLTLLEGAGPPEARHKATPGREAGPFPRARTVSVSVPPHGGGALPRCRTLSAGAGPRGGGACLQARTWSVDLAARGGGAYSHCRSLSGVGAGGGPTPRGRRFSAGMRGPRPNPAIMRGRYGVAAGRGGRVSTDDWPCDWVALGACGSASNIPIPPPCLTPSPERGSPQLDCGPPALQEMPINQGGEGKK
Sequence of UniProt P00558 (whole entry, looked up): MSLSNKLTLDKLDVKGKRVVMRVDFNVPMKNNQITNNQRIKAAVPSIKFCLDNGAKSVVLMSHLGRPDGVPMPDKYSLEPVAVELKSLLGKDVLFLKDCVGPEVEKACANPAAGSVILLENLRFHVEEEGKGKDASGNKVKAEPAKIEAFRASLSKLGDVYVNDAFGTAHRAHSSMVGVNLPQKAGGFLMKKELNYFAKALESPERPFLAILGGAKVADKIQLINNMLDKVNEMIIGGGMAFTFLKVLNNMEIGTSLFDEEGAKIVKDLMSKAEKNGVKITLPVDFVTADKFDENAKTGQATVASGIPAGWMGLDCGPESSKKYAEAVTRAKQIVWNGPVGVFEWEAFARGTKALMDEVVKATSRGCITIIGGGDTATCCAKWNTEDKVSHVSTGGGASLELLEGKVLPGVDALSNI
Sequence of UniProt Q99549 (whole entry, looked up): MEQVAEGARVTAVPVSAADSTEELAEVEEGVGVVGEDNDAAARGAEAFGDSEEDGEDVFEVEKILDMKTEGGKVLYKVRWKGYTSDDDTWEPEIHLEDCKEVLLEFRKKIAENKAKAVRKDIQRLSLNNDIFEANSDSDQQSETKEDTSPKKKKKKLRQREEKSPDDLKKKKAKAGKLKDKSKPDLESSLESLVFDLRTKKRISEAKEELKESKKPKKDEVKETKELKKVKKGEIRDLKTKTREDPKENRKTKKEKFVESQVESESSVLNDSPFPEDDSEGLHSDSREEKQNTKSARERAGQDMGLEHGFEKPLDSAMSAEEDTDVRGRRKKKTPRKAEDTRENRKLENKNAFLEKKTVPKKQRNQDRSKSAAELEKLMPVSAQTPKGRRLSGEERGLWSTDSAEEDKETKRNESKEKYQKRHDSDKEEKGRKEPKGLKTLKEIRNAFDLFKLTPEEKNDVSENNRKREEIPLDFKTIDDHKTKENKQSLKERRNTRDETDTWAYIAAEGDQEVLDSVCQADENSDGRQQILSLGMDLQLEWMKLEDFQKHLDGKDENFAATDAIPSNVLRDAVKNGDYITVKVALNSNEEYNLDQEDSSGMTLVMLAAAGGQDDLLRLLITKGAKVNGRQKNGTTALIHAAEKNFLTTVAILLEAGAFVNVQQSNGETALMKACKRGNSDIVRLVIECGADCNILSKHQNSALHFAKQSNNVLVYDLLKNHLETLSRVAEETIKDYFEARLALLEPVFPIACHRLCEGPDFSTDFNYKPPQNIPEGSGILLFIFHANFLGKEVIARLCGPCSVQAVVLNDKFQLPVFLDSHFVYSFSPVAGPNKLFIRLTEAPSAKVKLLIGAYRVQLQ

`EKPIDSETKM` gave a binding intensity of -0.214 (human MAGI1-2/6 PDZ construct (MBP fusion); automated holdup; peptide, crude extract; concentration not given, corrected by standard peak, unit not given; baseline: biotin control resin, higher = stronger binding).
`Runx2 (Mus musculus, UniProt Q08775)` — result for “OC promoter activity”: 22 fold (Sp7 (Mus musculus, UniProt Q8VI67); luciferase reporter; epithelial cells; baseline: alone, higher = greater activity).
Under interaction screen, `ORC6 (Saccharomyces cerevisiae, UniProt P38826)` is recorded as “cross-linked” (TAH11 (Saccharomyces cerevisiae, UniProt P47112); cross-linking MS; hits only).
For `PGK1 (Homo sapiens, UniProt P00558)`, cross-linked residues read “K48 to K356” (MPHOSPH8 (Homo sapiens, UniProt Q99549); cross-linking MS; cells; together with: iqPIR).
For `FGA (Homo sapiens, UniProt P02671)`, cross-linked residues read “K437 to K968” (EHBP1L1 (Homo sapiens, UniProt Q8N3D4); cross-linking MS; together with: DSSO).
The Ki of `B1 (CX3CL1 25-339)` is reported as 0.38 nM (CX3CR1 (Homo sapiens, UniProt P49238-4); AlphaScreen or HTRF).
The relative migration of `MMP9 recombinant (Homo sapiens, UniProt P14780)` is reported as 2.5 fold (Lrp1 (Rattus norvegicus, UniProt G3V928); Schwann cell migration; Schwann cells; 10 nM, 4 h, together with: fibronectin; baseline: control, higher = more migration).
With `DYNLRB1/DYNLL1/DYNLT1/DYNC1LI2/DYNC1I2/DYNC1H1 dynein-1 complex (Homo sapiens)` the Ka was > 1.6e+06 M⁻¹ (BICD2/KASH5 chimera BicD2 CC, KASH5 LIC-BD 1-98, HaloTag; pull-down).
With `SIRPA IgV domain-Fc fusion, bivalent (Homo sapiens)` the EC50 was 9.32 nM (CD47 (Homo sapiens, UniProt Q08722); flow cytometry; Raji; 30 min, apparent, bivalent).
`PDE4D3/GFP (Homo sapiens)` has a relative binding of 8.5 (AKAP6 (Homo sapiens, UniProt Q13023-1); co-IP; HEK293; wild type, together with: forskolin and IBMX; baseline: normalised to mAKAP precipitated, higher = more PDE4D3 bound).
`GSGAGKETRV` has a binding intensity of 0.435 (human MAGI1-2/6 PDZ construct (MBP fusion); automated holdup; peptide, crude extract; concentration not given, corrected by standard peak, unit not given; baseline: biotin control resin, higher = stronger binding).
The kon of `CTLA4 extracellular domain, monomer (Homo sapiens)` is reported as 317000 M⁻¹ s⁻¹ and 491000 M⁻¹ s⁻¹ (ipilimumab Fab; SPR).
With `B2` the affinity enhancement was 532 fold (NOTCH4 276-511 (Homo sapiens, UniProt Q99466); SPR; baseline: WT DLL4, higher = tighter binding).

A few entries again:
`Runx2 (Mus musculus, UniProt Q08775)` — result for “OC promoter activity”: 22 fold (Sp7 (Mus musculus, UniProt Q8VI67); luciferase reporter; epithelial cells; baseline: alone, higher = greater activity).
